Measured values gathered from unrelated publications.
Numbered parts are unrelated; each lists some results of a single study.
Chain of UniProt Q9C0B0 (30-357, looked up): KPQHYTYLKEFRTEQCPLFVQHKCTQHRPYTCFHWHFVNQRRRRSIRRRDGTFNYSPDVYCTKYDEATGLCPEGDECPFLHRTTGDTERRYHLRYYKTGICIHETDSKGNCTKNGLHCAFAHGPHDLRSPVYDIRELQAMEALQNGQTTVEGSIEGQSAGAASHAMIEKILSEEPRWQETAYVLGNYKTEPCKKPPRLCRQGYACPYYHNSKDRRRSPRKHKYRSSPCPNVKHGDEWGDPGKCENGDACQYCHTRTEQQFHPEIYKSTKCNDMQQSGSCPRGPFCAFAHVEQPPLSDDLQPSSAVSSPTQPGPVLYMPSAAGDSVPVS

Study 1
Target: TAR DNA-binding protein 43, full length, His tag (TARDBP, Homo sapiens, UniProt Q13148, residues 1-414)
Technique: RNA Bind-n-Seq
Molecule type: RNA
Medium: in vitro
Concentration: 20 nM
Setting: 6-mer, flanks averaged, single round
Together with: 150 mM KCl
Relative to: input library
Direction: higher = stronger binding
For `GAGGCU`, “6-mer enrichment (R)” read 1.42.
`UAUCAU`: “6-mer enrichment (R)” 0.54.
`GAACCA`: “6-mer enrichment (R)” 0.737.
`GGCGGA` — result for “6-mer enrichment (R)”: 3.53.

Single results of other studies
CBF1 full length, N-terminal tag: Centromere-binding protein 1, full length, N-terminal tag (CBF1, Saccharomyces cerevisiae, UniProt P17106, residues 1-351)
Chain of UniProt P17106 (whole entry, looked up): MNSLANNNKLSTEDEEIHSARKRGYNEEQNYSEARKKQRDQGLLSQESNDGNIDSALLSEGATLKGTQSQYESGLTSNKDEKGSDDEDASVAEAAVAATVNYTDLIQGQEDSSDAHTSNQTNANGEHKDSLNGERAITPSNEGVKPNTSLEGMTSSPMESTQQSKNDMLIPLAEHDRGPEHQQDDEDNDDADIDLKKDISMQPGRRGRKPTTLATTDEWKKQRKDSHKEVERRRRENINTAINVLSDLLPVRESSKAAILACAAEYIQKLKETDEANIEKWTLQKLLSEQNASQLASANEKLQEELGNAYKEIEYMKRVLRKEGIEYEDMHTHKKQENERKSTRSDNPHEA
With `GAAAGCAAGTAGAGTCACGTACCCCCCAGTAGATAGGTCTTGATTCGCTTGACGCTGCTG` the fluorescence intensity was 994 a.u. (CBF1 full length, N-terminal tag; protein-binding microarray; double-stranded DNA, one strand shown, in vitro; 0.8 µM, whole 60-bp probe, no competitor; higher = stronger binding).
With `PhoQ, residues 284 288 289 292 302 303 SLANKL` the fold induction was 18.4 (PhoP, residues 12 14 15 18 19 VQGLL (Escherichia coli, UniProt P23836); Sort-seq, refers to: YFP reporter; E. coli; PhoQ-PhoP variant library, together with: 10 µM Mg2+; relative to: high Mg2+ state, higher = stronger signaling).
For `GGGAGUUCUACAGUCCGACGAUCUAAAUUAGGGCUGCCGUUUUCUGUUUCUCCCUGGGCUGCGGAAAGCCAGGCGGUUUUAUCUAGCUUAUACAAGGCUGCUGGUGUUCCCUCUUUUUUUCCACGAGGGUUUUUUUUCCAGCACAACAGAGGAUUGAGCAUCA`, the bound/input enrichment was 1.24 ratio (RING finger protein unkempt homolog, zinc fingers 1-6, GST-SBP tag (UNK, Homo sapiens, UniProt Q9C0B0, residues 30-357); RNA Bind-n-Seq; RNA, in vitro; not given, RNA with constant flanks, human-mouse chimeric sites, ends assumed; relative to: input RNA pool, higher = stronger binding).
`CCTAACTACTATAGCAATGTCACATAGCTTCGTACAGTCTTGATTCGCTTGACGCTGCTG` has a fluorescence intensity of 511 a.u. (CBF1 full length, N-terminal tag; protein-binding microarray; double-stranded DNA, one strand shown, in vitro; 0.8 µM, whole 60-bp probe, no competitor; higher = stronger binding).

For quick reference, copied from above (study 1):
For `GAGGCU`, “6-mer enrichment (R)” read 1.42.
